Values quoted from earlier work that unrelated publications cite.
Compare with care: the assays were run in different laboratories. Numbers after ± are the reported error.

| SMILES | target or system | assay | system | conditions | how to read | endpoint | result |
| --- | --- | --- | --- | --- | --- | --- | --- |
| c1ccc2c(C3NCCc4c3[nH]c3ccccc43)c[nH]c2c1 (centres unmarked) | MRC-5 fibroblasts | cytotoxicity |  |  |  | IC50 | 22.9 µM |
| Cc1ccc(/N=C2\SC(C3C(=O)Nc4ccc(C)cc43)C(=O)N2c2ccc(C)cc2)cc1 (centres unmarked) | WI-38 |  |  |  |  | IC50 | 49.1 ± 1.9 µM |
| c1ccc2c(c1)CCNC2c1c[nH]c2ncccc12 (centres unmarked) | MRC-5 fibroblasts | cytotoxicity |  |  |  | IC50 | > 100 µM |
| CC(C)c1ccc(NC(=O)Nc2ccc(NC(=O)c3c[nH]c4ccc(Cl)cc4c3=O)cc2)cc1 | HepG2 |  |  |  | relative to: cpd over sorafenib | potency ratio | 5.24 fold |
| N#CN=C(NCc1ccc(S(=O)(=O)c2cccc(OC(F)(F)F)c2)cc1)Nc1ccncc1 | MCF7 |  |  |  |  | EC50 | 0.00033 µM |
| O=C1c2ccc3c4ccc5c6c(ccc(c7ccc(c2c37)C(=O)N1CCN1CCCCC1)c64)C(=O)N(CCN1CCCCC1)C5=O | PC-3 | telomere shortening |  | long-term treatment |  | effective concentration | 1 µM |
| O=C1N=C(Nc2ccccc2)S/C1=C1\C(=O)Nc2ccc([N+](=O)[O-])cc21 | MCF7 |  |  |  |  | IC50 | 40 ± 0.002 µM |
| CNCCN(C)Cc1ccc(-c2ccc(C(F)(F)F)cc2)o1 | Daoy | cell viability |  |  |  | IC50 | 69.8 µM |
| COc1ccc(Nc2nc(Nc3ccc(OCC[18F])cc3)ncc2Br)cc1 |  |  | S180 tumour-bearing mice, blood | intravenous, 30 min |  | tissue uptake | 2.19 ± 0.01 %ID/g |
| CCC(=C(c1ccc(O)cc1)c1ccc(O)cc1)[c-]1cccc1.[Fe+2].c1cc[cH-]c1 | NCI60 panel |  |  | mean-graph midpoint |  | TGI | 4.28 µM |
| CC(C)C(=O)N1CCC(c2ccc(NC(=O)N3Cc4ccccc4C3)cc2)CC1 | PC-3 |  |  |  |  | EC50 | 0.0092 µM |
| CC(C)=CCC/C(C)=C/CCn1cc(CC(C)(P(=O)(O)O)P(=O)(O)O)nn1 | myeloma cells |  |  |  |  | lowest effective concentration | 20 nM |
| CC(=O)OC1C(=O)C2(C)C(O)CC3OCC3(OC(C)=O)C2C(OC(=O)c2cccc(OC(F)(F)F)c2)C2(O)CC(OC(=O)C(O)C(C=C(C)C)NC(=O)OC(C)(C)C)C(C)=C1C2(C)C (centres unmarked) | MCF7/PTX |  |  | concentration not given |  | mammosphere formation | decreased |
| c1ccc2c(c1)CCNC2c1c[nH]c2ccncc12 (centres unmarked) | COLO 205 | cytotoxicity |  |  |  | IC50 | > 100 µM |
| CO[C@@H]1[C@@H](OC(=O)c2ccc(C)[nH]2)[C@@H](O)[C@H](Oc2ccc3c(O)c(NC(=O)c4c[nH]c(C(=O)Nc5c(O)c6ccc(O[C@@H]7OC(C)(C)[C@H](OC)[C@@H](OC(=O)c8ccc(C)[nH]8)[C@H]7O)c(C)c6oc5=O)c4C)c(=O)oc3c2C)OC1(C)C | NCI60 tumour cell lines | cell growth |  |  |  | GI50 | 0.5 to 5 µM |
| c1ccc2c(c1)CCCNC2c1c[nH]c2ccccc12 (centres unmarked) | MRC-5 fibroblasts | cytotoxicity |  |  |  | IC50 | > 100 µM |
| CCn1nccc1C1CCCN1S(=O)(=O)c1cc(C)c(C)cc1C (centres unmarked) | human monocytes | phagocytosis of anti-D RBCs |  | 5 µM, commercial sample |  | inhibition | > 69% |
